Measurements gathered from unrelated publications.
Protocols differ between the studies behind these lines. Values joined by “and” are separate records of one study, mostly repeats; a detail may differ.
Cell line: SF-539

| SMILES | assay | conditions | how to read | measurement | result |
| --- | --- | --- | --- | --- | --- |
| O=C(Nc1nnc2[nH]c(=S)[nH]c(-c3ccc(Cl)cc3)c1-2)c1ccccc1 | SRB | 10 µM, NCI60 single-dose screen | baseline: untreated | cell growth | 94.7% |
| COc1ccc(OC)c(-c2nc3ccc(-c4nc5ccc(N6CCN(C)CC6)cc5[nH]4)cc3[nH]2)c1 | SRB | 10 µM, 48 h |  | growth percent | 97.5% |
| C#C[C@@]1(O)[C@@H](CO)O[C@@H](n2ccc3c(N)ncnc32)[C@@H]1O | SRB | NCI-60 screen |  | TGI | 4440 nM |
| O=C(Nc1nnc2n3c(nc(-c4ccc(Cl)cc4)c1-2)SCC3=O)c1ccccc1 | SRB | 10 µM, NCI60 single-dose screen | baseline: untreated | cell growth | 96.2% |
| CCN(CC)c1ccc(C=NNC(=O)CSc2nc3ccccc3c(=O)n2Cc2ccc(S(N)(=O)=O)cc2)c(O)c1 | NCI five-dose screen |  |  | TGI | > 100000 nM |
| C#C[C@@]1(O)[C@@H](CO)O[C@@H](n2cc(Br)c3c(N)ncnc32)[C@@H]1O | SRB | NCI-60 screen |  | TGI | 2040 nM and 1140 nM |
| S=C([S][Au-][P+](CCCCCC[P+]([Au-][S]C(=S)n1cccn1)(c1ccccc1)c1ccccc1)(c1ccccc1)c1ccccc1)n1cccn1 | cell growth, NCI-60 screen | CNS cancer |  | log10 TGI | -4.32 |
| O=C1NC(=NCc2cccs2)S/C1=C\c1ccc2ncccc2c1 | MTS | NCI60 panel |  | IC50 | 2550 nM |
| CCCN1CCN(c2ccc3[nH]c(-c4ccc5[nH]c(-c6ccc(OCC)c(OCC)c6)nc5c4)nc3c2)CC1 | SRB | 10 µM, 48 h |  | growth percent | -87.9% |
| Cc1cc(=O)[nH]n1-c1nc(-c2ccc(Cl)cc2)c2c(NC(=O)c3ccccc3)nnc-2[nH]1 | SRB | 10 µM, NCI60 single-dose screen | baseline: untreated | cell growth | 92.9% |
| Cn1cncc1C1=CN(c2ncnc3[nH]cnc23)CCS1 |  | CNS cancer |  | TGI | 40700 nM |
| Cc1cc(-c2ccccc2)n(-c2nc(-c3ccc(Cl)cc3)c3c(NC(=O)c4ccccc4)nnc-3[nH]2)n1 | SRB | 10 µM, NCI60 single-dose screen | baseline: untreated | cell growth | 94.7% |
| CCCCN1CCN(c2ccc3[nH]c(-c4ccc5[nH]c(-c6ccc(C(F)(F)F)cc6)nc5c4)nc3c2)CC1 | SRB | 10 µM, 48 h |  | growth percent | -92.8% |
| CCOC(=O)CSc1nc(-c2ccc(Cl)cc2)c2c(NC(=O)c3ccccc3)nnc-2[nH]1 | SRB | 10 µM, NCI60 single-dose screen | baseline: untreated | cell growth | 94% |
| CCCN1CCN(c2ccc3[nH]c(-c4ccc5[nH]c(-c6ccc(C(F)(F)F)cc6)nc5c4)nc3c2)CC1 | SRB | 10 µM, 48 h |  | growth percent | -94.6% |

Excerpt of the above:
| SMILES | assay | conditions | how to read | measurement | result |
| --- | --- | --- | --- | --- | --- |
| CCCN1CCN(c2ccc3[nH]c(-c4ccc5[nH]c(-c6ccc(OCC)c(OCC)c6)nc5c4)nc3c2)CC1 | SRB | 10 µM, 48 h |  | growth percent | -87.9% |
| Cc1cc(-c2ccccc2)n(-c2nc(-c3ccc(Cl)cc3)c3c(NC(=O)c4ccccc4)nnc-3[nH]2)n1 | SRB | 10 µM, NCI60 single-dose screen | baseline: untreated | cell growth | 94.7% |
